Published values collected from several papers.
Each numbered part is a random draw from the data of one study; scales do not carry over between parts. Changes are numbered by the printed parent chain.

Study 1
Target: Sal-like protein 4, full length isoform A (SALL4, Homo sapiens, UniProt Q9UJQ4, residues 1-1053)
Chain of UniProt Q9UJQ4 (whole entry, looked up): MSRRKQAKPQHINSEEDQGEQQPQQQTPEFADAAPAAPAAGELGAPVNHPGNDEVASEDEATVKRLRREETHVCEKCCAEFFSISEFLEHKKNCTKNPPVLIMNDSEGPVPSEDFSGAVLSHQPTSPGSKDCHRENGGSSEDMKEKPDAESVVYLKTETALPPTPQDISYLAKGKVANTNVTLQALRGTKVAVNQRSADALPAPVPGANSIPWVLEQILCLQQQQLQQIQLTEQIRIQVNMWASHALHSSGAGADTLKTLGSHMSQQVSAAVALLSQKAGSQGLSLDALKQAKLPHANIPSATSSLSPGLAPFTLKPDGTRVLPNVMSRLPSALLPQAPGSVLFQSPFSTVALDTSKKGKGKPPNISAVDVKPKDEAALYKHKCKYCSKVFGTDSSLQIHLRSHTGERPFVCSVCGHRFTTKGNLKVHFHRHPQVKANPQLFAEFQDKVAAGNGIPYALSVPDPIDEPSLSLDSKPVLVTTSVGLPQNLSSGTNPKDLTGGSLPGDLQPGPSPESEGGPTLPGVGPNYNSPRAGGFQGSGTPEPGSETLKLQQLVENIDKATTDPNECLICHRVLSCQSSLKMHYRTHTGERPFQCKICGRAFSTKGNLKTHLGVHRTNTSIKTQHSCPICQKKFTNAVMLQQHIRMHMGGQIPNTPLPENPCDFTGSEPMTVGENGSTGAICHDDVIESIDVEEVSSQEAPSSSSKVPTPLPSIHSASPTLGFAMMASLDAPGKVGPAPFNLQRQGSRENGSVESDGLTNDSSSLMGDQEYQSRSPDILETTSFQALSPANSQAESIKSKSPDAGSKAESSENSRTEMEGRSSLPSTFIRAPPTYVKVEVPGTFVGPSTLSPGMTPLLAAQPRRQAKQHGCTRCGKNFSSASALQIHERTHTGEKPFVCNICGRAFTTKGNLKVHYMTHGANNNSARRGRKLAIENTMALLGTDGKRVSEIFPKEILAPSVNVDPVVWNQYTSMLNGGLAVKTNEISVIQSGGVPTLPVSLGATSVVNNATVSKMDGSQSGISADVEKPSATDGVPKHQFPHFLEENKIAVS
Technique: universal PBM
Form: double-stranded DNA, one strand shown
Medium: in vitro
Concentration: 600 nM
Notes: 8-mer, flanks averaged, mean of replicates
Direction: higher = stronger binding
| Strand | E-score |
| --- | --- |
| CAGTCGCA | -0.145 |
| CAGATCTC | -0.111 |
| CTGTTTGC | 0.0201 |
| ACCCGTAC | -0.172 |
| CGCACGTA | -0.0375 |
| AGAAACAC | 0.13 |
| ACGATAGA | 0.059 |
| ACCTTAAA | 0.00411 |
| CTCTAGAA | 0.0117 |
| GACGATAA | 0.183 |
| CAATTTCG | 0.0752 |
| CGGATACA | 0.0361 |
| GGACCTTA | -0.115 |
| CACTCAAA | 0.139 |
| ACGCGTTC | -0.0829 |
| ATCGAACC | -0.0129 |
| CACCATAA | 0.265 |
| CAAGGGCG | -0.242 |
| GTGTTGTA | 0.129 |
| AATGAACC | 0.0721 |
| CGTGTCAA | -0.193 |
| ATGTCGAG | -0.0377 |
| CGGGCCTC | -0.324 |
| CTCCATTA | 0.121 |
| CTTCACCA | -0.117 |

Study 2
Target: PABPC1L2, full length, GST fusion (mouse, UniProt A0ABA7IW68)
Technique: RNAcompete
Form: RNA
Medium: in vitro
Concentration: 20 nM
Notes: 7-mer, probes averaged, single round
Baseline: mean of 7-mers
Direction: higher = stronger binding
Construct (chain): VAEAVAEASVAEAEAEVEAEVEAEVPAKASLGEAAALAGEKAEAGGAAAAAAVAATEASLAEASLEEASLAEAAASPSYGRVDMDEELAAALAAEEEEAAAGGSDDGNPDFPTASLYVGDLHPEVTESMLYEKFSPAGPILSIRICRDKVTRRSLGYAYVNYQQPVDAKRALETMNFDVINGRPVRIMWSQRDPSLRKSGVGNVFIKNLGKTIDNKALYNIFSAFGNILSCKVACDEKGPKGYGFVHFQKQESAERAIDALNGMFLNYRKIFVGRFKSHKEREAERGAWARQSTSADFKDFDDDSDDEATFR
| Strand | 7-mer Z-score |
| --- | --- |
| UGGGGAG | 0.211 |
| CUGGACA | -0.0736 |
| CAGGAGG | 0.365 |
| ACAAGAA | 0.379 |
| AAGUCGC | 0.0243 |
| CGUGACA | -0.0971 |
| UUGUUCA | -0.398 |
| AAAUUUC | 0.78 |
| CCCAUUA | -0.244 |
| AAUCAGC | 0.204 |
| AGUUGAC | -0.0989 |
| CCAGGUA | -0.157 |
| CGAUUUC | -0.365 |
| AAUGACC | 0.113 |
| CCAAUAG | -0.0192 |
| UGACGCG | -0.258 |
| CAUUCCU | -0.296 |
| ACCAUAG | -0.0699 |
| UACCCAC | -0.369 |
| CUGAGCG | -0.11 |

Study 3
Target: CCNB1, cyclin fold, Cln2 fusion (human)
Technique: yeast growth competition, sequencing
Medium: yeast
Notes: weak parent motif
Baseline: not given
Direction: higher = stronger binding
Starting sequence: SCAPER docking peptide (human); SNARRSLNFGGST
| Substitution | normalised enrichment score |
| --- | --- |
| R4Y | 0.53 |
| R5S | 0.495 |
| G10E | 0.26 |
| R5C | 0.126 |
| A3S | -0.429 |
| A3T | 0.851 |
| F9V | -0.0151 |
| N8T | 0.504 |
| G11P | 0.00749 |
| S1N | 0.451 |
| S6C | 0.637 |
| G10Y | 0.658 |
| S12E | 0.736 |
| S12H | 0.627 |
| G11S | 0.316 |
| R4H | 0.21 |
| N2P | 0.177 |
| G10N | 0.27 |
| S12A | 0.991 |
| T13K | 0.58 |
| G10L | 0.188 |
| R5D | 0.178 |
| A3Y | 0.335 |
| F9H | 0.592 |
| T13M | 0.62 |

Study 4
Target: Interferon regulatory factor 5, full length, phosphomimetic (IRF5, Homo sapiens, UniProt Q13568-2, residues 1-514, K96S/S451D/S453D/S456D/S462D)
Technique: protein-binding microarray
Form: double-stranded DNA, one strand shown
Medium: in vitro
Concentration: 250 nM
Notes: 60-bp whole probe
With: salmon DNA 0.4 mg/ml
Baseline: random background probes
Direction: higher = stronger binding
All sequences stand within: GCCTAGCAC … GTCTTGATTCGCTTGACGCTGCTG
| Strand | log fluorescence [z-score] |
| --- | --- |
| GACGGTCTCCTAGTGCTGACGTGCTAG | -0.473 |
| TCACCTCTCCTCTCAGGAACTGTGCTA | 0.0128 |
| AGAGCTGTCCTTTGCAACAGGTGCTAG | -0.536 |
| CTAGGACTGGGGTTTCGGTTAGTGCTA | 6.68 |
| GACGAACTGAGTATCGTGACGTGCTAG | 0.433 |
| TTAGGTTTAGGTTCCGGTTAGTGCTAG | 1.12 |
| TCACCTCTGCTCCTCTTACTGTGCTAG | 0.223 |
| GACGGTTTCGGTTTCGGTACGTGCTAG | 11.6 |
| GGTCCTTTCTGCCTCAGAGGGTGCTAG | 1.64 |
| GACGAACCGGGGACTGGAGACGTGCTA | -0.347 |
| GACGATATCGGGTTTCGATACGTGCTA | 7.23 |
| GACGAACTGAGTTTCGAGACGTGCTAG | 4.65 |
| TTAGGACTGGGCTATCGGTTAGTGCTA | 2.22 |
| GACGAACTGAGACTAGAGACGTGCTAG | -0.0655 |
| GACGATATGAGACTGGAGACGTGCTAG | 0.374 |
| TCACCTTTGTTTTTTTCACTGTGCTAG | 1.6 |
| GACGGTTTCTTACTGCTGACGTGCTAG | 0.623 |
| AGATTTTTCTCAACCGTTGTGTGCTAG | 0.68 |
| TTAGAACTGGGGTTTCGACTAGTGCTA | 2.64 |

Study 5
Target: Histone acetyltransferase KAT6A, winged helix 2, GST fusion (KAT6A, Homo sapiens, UniProt Q92794, residues 85-181)
Technique: protein binding microarray
Form: double-stranded DNA, one strand shown
Medium: in vitro
Concentration: not given
Notes: 8-mer, flanks averaged, mean of 2 arrays, mostly near background
Baseline: not given
Direction: higher = stronger binding
Residues (chain): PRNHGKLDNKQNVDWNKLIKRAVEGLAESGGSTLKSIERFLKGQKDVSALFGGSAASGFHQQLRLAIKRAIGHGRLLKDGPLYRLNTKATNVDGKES
| Strand | E-score |
| --- | --- |
| ACTCGGCA | 0.131 |
| AAGCCTCA | -0.0362 |
| GCTATGAC | -0.0374 |
| GAGTATAC | -0.0378 |
| AGAGTGTC | 0.152 |
| AGATGCCC | -0.0206 |
| GAGGCAGC | -0.109 |
| CGATAGAC | -0.144 |
| CCCCTGAC | 0.21 |
| GGTGAGAC | -0.124 |
| AATACACG | -0.178 |
| TACTTGAA | -0.103 |
| TCCTAGCA | -0.17 |
| ACCCCCGG | -0.128 |
| GTATGCAA | 0.0749 |
| ATACAAAG | 0.197 |
| CCCGGTAC | -0.0177 |
| AAAACGGG | 0.00583 |
| CTTAGATC | 0.0128 |
| CGAGACAG | 0.0225 |
| GGGTGACA | 0.0989 |

Study 6
Target: ABI1, truncated, D143A, DHFR fusion (Arabidopsis thaliana)
Technique: DHFR PCA, deep sequencing
Medium: yeast
Notes: methotrexate growth selection, single substitutions
With: (+)-ABA 0.0091 µM
Baseline: wild-type fitted maximum
Direction: higher = stronger binding
Starting sequence: PYL1, truncated, DHFR fusion (Arabidopsis thaliana); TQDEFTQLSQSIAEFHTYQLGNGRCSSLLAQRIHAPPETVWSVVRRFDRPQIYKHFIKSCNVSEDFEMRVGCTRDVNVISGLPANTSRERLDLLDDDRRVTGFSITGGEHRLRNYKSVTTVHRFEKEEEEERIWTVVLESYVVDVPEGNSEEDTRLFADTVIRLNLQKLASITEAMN; partner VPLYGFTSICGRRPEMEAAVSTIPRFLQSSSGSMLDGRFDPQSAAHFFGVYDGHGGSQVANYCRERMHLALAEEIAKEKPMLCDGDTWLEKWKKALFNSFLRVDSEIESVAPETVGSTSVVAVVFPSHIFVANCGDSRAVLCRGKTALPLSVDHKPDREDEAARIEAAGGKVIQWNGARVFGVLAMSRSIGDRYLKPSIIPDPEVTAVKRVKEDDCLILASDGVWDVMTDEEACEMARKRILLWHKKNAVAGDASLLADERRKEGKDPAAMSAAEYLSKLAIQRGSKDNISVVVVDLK
| Substitution | relative binding score [%] |
| --- | --- |
| R32D | -1.27 |
| V143H | -2.07 |
| E128L | 8.39 |
| S104H | -8.25 |
| R69S | 17.3 |
| L28S | -0.714 |
| F47E | -0.289 |
| E131P | 72.6 |
| R123P | 22.9 |
| V142L | -0.757 |
| Y53G | -2.09 |
| Y53N | 0.906 |
